Published values from different studies.
Protocols differ between the studies behind these lines. ± gives the spread as reported.
Ugcg: Ceramide glucosyltransferase (Ugcg, Mus musculus, UniProt O88693)
Sequence of UniProt O88693 (whole entry, looked up): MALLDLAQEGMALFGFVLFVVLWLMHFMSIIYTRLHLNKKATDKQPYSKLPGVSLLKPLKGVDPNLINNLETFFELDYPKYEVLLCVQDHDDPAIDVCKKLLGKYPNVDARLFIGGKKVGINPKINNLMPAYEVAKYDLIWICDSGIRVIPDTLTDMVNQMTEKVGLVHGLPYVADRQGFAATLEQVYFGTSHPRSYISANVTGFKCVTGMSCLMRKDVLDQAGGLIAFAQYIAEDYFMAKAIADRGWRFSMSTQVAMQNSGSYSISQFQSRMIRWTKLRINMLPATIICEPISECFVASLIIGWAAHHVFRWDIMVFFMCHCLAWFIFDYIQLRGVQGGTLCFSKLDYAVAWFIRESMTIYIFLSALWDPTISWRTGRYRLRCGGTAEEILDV
Sequence of UniProt P10635 (whole entry, looked up): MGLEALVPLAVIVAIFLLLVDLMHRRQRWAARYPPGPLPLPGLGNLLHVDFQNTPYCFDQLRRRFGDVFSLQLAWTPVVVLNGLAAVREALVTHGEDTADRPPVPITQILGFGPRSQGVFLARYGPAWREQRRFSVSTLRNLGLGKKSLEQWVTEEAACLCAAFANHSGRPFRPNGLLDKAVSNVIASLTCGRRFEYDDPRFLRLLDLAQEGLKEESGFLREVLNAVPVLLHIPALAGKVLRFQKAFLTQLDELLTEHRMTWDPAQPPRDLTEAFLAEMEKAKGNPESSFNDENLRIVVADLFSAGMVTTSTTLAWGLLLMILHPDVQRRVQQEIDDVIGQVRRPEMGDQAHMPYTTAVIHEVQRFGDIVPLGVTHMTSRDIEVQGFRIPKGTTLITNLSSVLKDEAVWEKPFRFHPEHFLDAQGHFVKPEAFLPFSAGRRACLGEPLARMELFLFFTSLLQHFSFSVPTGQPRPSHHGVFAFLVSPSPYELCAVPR

SMILES | tested on | assay | system | setting | scale | endpoint | result
O=C(c1ccc(C2CCCCC2)cc1)N1CCC(F)CC1 | – | liver microsome stability | human liver microsomes | 1 µM, without NADPH | – | hepatic clearance | 4.6 mL/min/kg
COC(=O)Nc1nc2cc(C(O)c3ccc(F)cc3)ccc2[nH]1 (stereo not drawn) | Salmonella typhimurium | Ames preincubation test | TA1535 | 437.5 µg/plate, without S9 | – | revertants | 18.3 revertants/plate
Cc1cc(=O)c2c(O)c3c(O[C@@H]4O[C@H](CO)[C@@H](O)[C@H](O)[C@H]4O)cc(O)cc3cc2o1 | HepaRG co-cultured with HK-2 | MTT | – | 266.67 µM, 48 h | relative to: untreated control | cell viability | 39.7 ± 6.21%
N#C[C@@H]1CC(F)(F)CN1C(=O)CNC(=O)c1ccnc2c(NC(=O)CCOCCOCCOCCOCCOCCOCCNC(=O)[C@H](CCCCNC(=O)CN3CCN(CC(=O)[O-])CCN(CC(=O)[O-])CCN(CC(=O)[O-])CC3)NC(=O)CCCc3ccc(I)cc3)cccc12.[177Lu+3] | U-87 MG tumour model | – | host not given, muscle | 4 h, tumour-bearing | – | tracer uptake | 0.85 %ID/g
Cc1ccc(-n2nc(C(N)=O)cc2-c2ccc(CC(C)C)cc2)cc1 | HeLa | cell growth or viability | – | – | – | CC50 | 34 µM
F[C@@H]1[C@H](c2ccc(-c3ccc(N4CCCC4)nc3)cc2)[C@H](F)[C@H](F)C[C@@H]1F | – | hepatocyte stability | cryopreserved human hepatocytes | 1 µM | – | hepatic clearance | 7.1 mL/min/kg
OC[C@@H]1[C@@H](O)[C@H](O)[C@@H](O)CN1CCCCCOCC1CCC1 | Ugcg | enzyme activity, inhibitor | RAW264.7 | in situ, added: C6-NBD-ceramide | – | IC50 | 0.64 µM
CN1CCCNC(=O)c2cccc(c2)C(=O)NCCCN(C)CCCNc2cccc3c2C(=O)c2cccc(c2C3=O)NCCC1 | HeLa | cell growth or viability, CCK-8 | – | 15 nM, 48 h | – | viability | 94.8%
CC(=O)N[C@H](C(=O)N[C@H](C(=O)N[C@@H](CCCNC(=N)N)C(=O)N[C@@H](CC(N)=O)C(=O)N[C@@H](CC(=O)O)C(=O)N[C@H](C(=O)N1CCC[C@@H]1C(=O)N1CCC[C@H]1C(=O)N[C@@H](CC(=O)O)C(=O)N[C@@H](CO)C(=O)N[C@@H](CC(C)C)C(=O)N[C@@H](CC(C)C)C(=O)N[C@H](C(=O)N[C@@H](Cc1ccccc1)C(N)=O)C(C)C)C(C)C)[C@@H](C)O)C(C)C | HEK-293T | subcellular fractionation LC-MS | nuclear fraction | 20 µM, 24 h | – | peptide amount per protein | not detected
O=C1C2CC3CC1CC(C(=O)N1CCN(c4ccc([N+](=O)[O-])c5ncccc45)CC1)(C3)C2 | Salmonella typhimurium | Ames test | TA97a | 0.13 µg/well, with S9 | – | mean revertant colonies | 23 colonies/well
c1cc(C2CCCCC2)ccc1-c1ccc(N2CCCC2)nc1 | – | liver microsome stability | human liver microsomes | 1 µM, without NADPH | – | hepatic clearance | 7 mL/min/kg
CCCC[C@H](NC(=O)CCCCCCCNC(=O)CN1CCN(CC(=O)O)CCN(CC(=O)O)CC1)C(=O)N[C@H]1CC(=O)NCCCC[C@@H](C(N)=O)NC(=O)[C@H](Cc2c[nH]c3ccccc23)NC(=O)[C@H](CCCNC(=N)N)NC(=O)[C@@H](Cc2ccccc2)NC(=O)[C@H](Cc2c[nH]cn2)NC1=O [technetium-99m labelled] | – | – | C57 mouse, bone | intravenous, 0.037 MBq, 0.5 h | – | tissue uptake | 0.63 ± 0.15 %ID/g
CC(C)OCCOCc1ccc(OCC(O)CN(N=O)C(C)C)cc1 (stereo not drawn) | Salmonella typhimurium | Ames test | TA98 | 1580 µg/plate, 30 % hamster S9 | relative to: solvent control | revertant fold increase | 1 fold
O=C(NC1CCOCC1)c1ccc([C@H]2[C@@H](F)[C@@H](F)C[C@@H](F)[C@H]2F)cc1 | – | liver microsome stability | dog liver microsomes | 1 µM | – | hepatic clearance | 7.3 mL/min/kg
N#C[C@@H]1CC(F)(F)CN1C(=O)CNC(=O)c1ccnc2c(NC(=O)[C@@H](N)CCCCNC(=O)CCOCCOCCOCCOCCOCCOCCNC(=O)CN3CCN(CC(=O)[O-])CCN(CC(=O)[O-])CCN(CC(=O)[O-])CC3)cccc12.[177Lu+3] | U-87 MG tumour model | – | host not given, heart | 1 h, tumour-bearing | – | tracer uptake | 0.25 %ID/g
CNC(=O)C1CCCN(C(=O)C2CC3CCC2N3C(=O)[C@@H]2C[C@@H](O)CN2C(=O)NCc2cccc(Cl)c2F)C1 (mixture of isomers) | Cytochrome P450 2D6 (CYP2D6, Homo sapiens, UniProt P10635) | enzyme activity, inhibitor, time-dependent inhibition | – | 50 µM, preincubated without NADPH | – | dextrorphan formation | 149 ng/mL
CC(=O)Nc1ccc(C2CCCCC2)cc1 | – | liver microsome stability | mouse liver microsomes | 1 µM | – | hepatic clearance | 87 mL/min/kg
OC[C@H]1N[C@H](C/C=C/CCOCC23CC4CC(CC(C4)C2)C3)[C@H](O)[C@@H](O)[C@@H]1O | Ugcg | enzyme activity, inhibitor, fluorescence | – | – | – | IC50 | 10 µM

Excerpt of the above:
SMILES | tested on | assay | system | setting | scale | endpoint | result
CC(=O)N[C@H](C(=O)N[C@H](C(=O)N[C@@H](CCCNC(=N)N)C(=O)N[C@@H](CC(N)=O)C(=O)N[C@@H](CC(=O)O)C(=O)N[C@H](C(=O)N1CCC[C@@H]1C(=O)N1CCC[C@H]1C(=O)N[C@@H](CC(=O)O)C(=O)N[C@@H](CO)C(=O)N[C@@H](CC(C)C)C(=O)N[C@@H](CC(C)C)C(=O)N[C@H](C(=O)N[C@@H](Cc1ccccc1)C(N)=O)C(C)C)C(C)C)[C@@H](C)O)C(C)C | HEK-293T | subcellular fractionation LC-MS | nuclear fraction | 20 µM, 24 h | – | peptide amount per protein | not detected
O=C1C2CC3CC1CC(C(=O)N1CCN(c4ccc([N+](=O)[O-])c5ncccc45)CC1)(C3)C2 | Salmonella typhimurium | Ames test | TA97a | 0.13 µg/well, with S9 | – | mean revertant colonies | 23 colonies/well
CC(C)OCCOCc1ccc(OCC(O)CN(N=O)C(C)C)cc1 (stereo not drawn) | Salmonella typhimurium | Ames test | TA98 | 1580 µg/plate, 30 % hamster S9 | relative to: solvent control | revertant fold increase | 1 fold
